Assay results pooled from the literature.
Every numbered part comes from another study and shows a few of its results, in no order. Positions count from the first letter of the parent shown.

Study 1
Target: DBP, bZIP domain (human)
Method: DHFR protein complementation
Sample: yeast
Notes: single substitutions, most at no-binding floor
Relative to: wild-type JUN-FOS pair
Reading: higher = stronger binding
Starting sequence: JUN, bZIP domain (human); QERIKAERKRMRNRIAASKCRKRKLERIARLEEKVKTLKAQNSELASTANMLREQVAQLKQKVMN; partner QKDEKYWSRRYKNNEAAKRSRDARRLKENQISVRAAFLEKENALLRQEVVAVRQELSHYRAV
Variant	binding fitness [natural log]
E54D	-1.38
L38P	-1.48
L52Q	-1.51
K39H	-1.48

Study 2
Target: RNA binding protein fox-1 homolog 2, RRM domain, GST-SBP tag (RBFOX2, Homo sapiens, UniProt O43251-10, residues 100-194)
Method: RNA Bind-n-Seq
Molecule type: RNA
Sample: in vitro
Tested at: 365 nM
Notes: natural RNA segment, single round, ends assumed
Relative to: no-protein control
Reading: higher = stronger binding
Constant ends, left off below: GGGAGUUCUACAGUCCGACGAUC … UGGAAUUCUCGGGUGCCAA
Residues (chain): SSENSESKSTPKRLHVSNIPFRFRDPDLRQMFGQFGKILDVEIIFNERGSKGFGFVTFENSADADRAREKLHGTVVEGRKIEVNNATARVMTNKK
Strand	RBNS enrichment (R)
AUUAGGCAAUACCCUUGUUAAUUGCCCUUUGGCAACUAACUUAACCAUGUGCUUCCCACACAGUACAUCAGGAAAACUUACAGGGCAAUAUUUUUAACUUGGGGCAGGAA	0.409
AUGGAGUUGUUUACAUUAAGCAUGACCGAACGAGAGACAAUACUAUUUCCCACAGGAGUCCAUUGGGUUCAGCUUUGAAAGAGGAAUAGAAUCGAGGCUCCUUUGACCAU	0.518
ACAGAGCUACCUUUUGGGAUGAUUGCUUGAUUGUUUUUUUAUCUGAGAAUUCUAGAUAGAUAGCUAAUCUGCUUUUAAUCAUGACAUUUUAAUCUACCUCUGUCUCUUUA	0.397
CUGGCCCUGUGGUUCGGUUCUCACAGUUCCAGUGAGACUGGGCAGCGUGUUUGCCUGUCCUGAGGUGCCAGGCCUGCAGAGAGUGGACUCUGGUGGGUGCUUCCUUCCUC	0.26
UGGAUUUGGGACCUACAAUACUCCUCAGGUUGAGAUAUUCUUGAAGUUUUAAAAUAGCUUUAGUUUUUAAAGUAAACUGGAUUUGUGGACCUUAAAGUUACUGAGUUUAA	0.544

Study 3
Target: Interferon regulatory factor 7, full length, phosphomimetic (IRF7, Homo sapiens, UniProt Q92985, residues 1-503, S101K/S471D/S472D/S475D/S476D/S477D/S483D/S484D/S487D)
UniProt Q92985, sequence (whole entry, unmodified, looked up): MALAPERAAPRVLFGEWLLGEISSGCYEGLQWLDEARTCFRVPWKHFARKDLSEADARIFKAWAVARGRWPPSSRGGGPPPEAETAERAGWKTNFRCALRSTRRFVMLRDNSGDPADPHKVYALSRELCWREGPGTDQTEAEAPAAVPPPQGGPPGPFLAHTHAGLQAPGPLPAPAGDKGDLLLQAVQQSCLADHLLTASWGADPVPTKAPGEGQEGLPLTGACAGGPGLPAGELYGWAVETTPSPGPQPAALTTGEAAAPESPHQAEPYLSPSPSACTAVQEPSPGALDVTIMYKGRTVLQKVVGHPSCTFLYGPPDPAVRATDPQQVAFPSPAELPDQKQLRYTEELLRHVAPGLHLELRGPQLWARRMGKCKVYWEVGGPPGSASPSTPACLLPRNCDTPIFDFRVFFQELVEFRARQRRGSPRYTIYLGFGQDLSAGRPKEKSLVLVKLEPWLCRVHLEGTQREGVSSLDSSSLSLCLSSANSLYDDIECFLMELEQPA
Method: protein-binding microarray
Molecule type: double-stranded DNA, one strand shown
Sample: in vitro
Tested at: 250 nM
Notes: 60-bp whole probe
Together with: salmon DNA 0.4 mg/ml
Relative to: random background probes
Reading: higher = stronger binding
Constant ends, left off below: GCCTAGCAC … GTCTTGATTCGCTTGACGCTGCTG
Strand	log fluorescence
TTTGGACTGGACTATCGGTTAGTGCTA	-0.739 z-score
TTAGATTTCAGTTTCCATTAGTGCTAG	4.13 z-score
GACGGGCTGCTTTTCCTGACGTGCTAG	-0.572 z-score
GTCGGTATCGGTATCGGGACGTGCTAG	1.95 z-score
GTGGGACCCATGAACACTCAGTGCTAG	-0.233 z-score
TTAGGTTTCCTTGTCCTTTAGTGCTAG	1.26 z-score

Single results of other studies
Molecule	target	assay	test system	conditions	how to read	endpoint	value
PhoQ, residues 284 288 289 292 302 303 SACGEM	PhoP, residues 12 14 15 18 19 FWNTL (Escherichia coli, UniProt P23836)	Sort-seq, item: YFP reporter	E. coli	PhoQ-PhoP variant library, together with: 10 µM Mg2+	relative to: high Mg2+ state, higher = stronger signaling	fold induction	0.703
